Assay results gathered from unrelated publications.
A part holds a random share of what one study measured.

Series 1
Target: Ras GTPase-activating protein-binding protein 1, full length (G3BP1, Homo sapiens, UniProt Q13283)
UniProt Q13283, sequence (whole entry, looked up): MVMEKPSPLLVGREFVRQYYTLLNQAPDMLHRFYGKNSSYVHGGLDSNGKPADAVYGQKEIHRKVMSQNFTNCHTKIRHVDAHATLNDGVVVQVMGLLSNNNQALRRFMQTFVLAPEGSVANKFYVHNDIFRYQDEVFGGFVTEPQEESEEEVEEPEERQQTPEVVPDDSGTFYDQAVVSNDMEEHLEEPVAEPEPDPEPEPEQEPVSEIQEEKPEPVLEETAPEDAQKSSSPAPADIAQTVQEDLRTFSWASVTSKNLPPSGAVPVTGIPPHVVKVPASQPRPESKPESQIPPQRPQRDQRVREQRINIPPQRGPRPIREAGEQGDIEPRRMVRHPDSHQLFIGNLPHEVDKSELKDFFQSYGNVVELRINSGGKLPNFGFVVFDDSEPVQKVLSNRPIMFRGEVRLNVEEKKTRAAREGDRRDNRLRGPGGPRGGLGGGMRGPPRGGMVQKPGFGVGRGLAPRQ
Method: RNA Bind-n-Seq
Molecule type: RNA
Matrix: in vitro
Tested at: 200 nM
Notes: whole 134-nt RNA, ends assumed
With: 150 mM KCl
Reference: input library
Reading: higher = stronger binding
For `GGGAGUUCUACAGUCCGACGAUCUCCUGUGCUACACAUCGUAUGUACCGAAUCGGGUUUUUUUGGUUUUUUUGGUUUUUUUGGAAAGUAUUAUGUUACGCCGUUCGGAUCUGCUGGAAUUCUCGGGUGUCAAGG`, the log2 enrichment was -0.438.
With `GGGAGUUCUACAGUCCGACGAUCGUCCUGUGCUACACAUCGUAUGUACCGAAUCAAAUUUUUAAAUUUAAAUUUUUUUAAAAAAGUAUUAUGUUACGCCGUUCGGAUCUGCACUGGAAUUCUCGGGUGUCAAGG` the log2 enrichment was -1.47.
`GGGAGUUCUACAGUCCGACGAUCUCCUGUGCUACACAUCGUAUGUACCGAAUCGGCCCCCCGGCCCCCCGGGGCCCCCCGGGAAAGUAUUAUGUUACGCCGUUCGGAUCUGCAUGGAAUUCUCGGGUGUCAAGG` has a log2 enrichment of -0.49.
The log2 enrichment of `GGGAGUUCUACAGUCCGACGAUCUCAAGUCCUGUGCUACACAUCGUAUGUACCGAAUCGGGGUUUGGUUUGGUUUGGGAAAGUAUUAUGUUACGCCGUUCGGAUCUGCACUUCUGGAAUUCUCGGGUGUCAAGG` is reported as -0.417.
With `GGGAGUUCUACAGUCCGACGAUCUGGCCCUGGUGGCAUGCGGGGAGGAAGAGGUGGCCUCAUGGAUCGUGGUGGUCCCGGUGGAAUGUUCAAAGGUGGCCGUGGUGGAGACAGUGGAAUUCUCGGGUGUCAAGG` the log2 enrichment was 0.243.
The log2 enrichment of `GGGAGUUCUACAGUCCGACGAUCUCUCCCCAGGAGCACAGAAAAUGGUUCUGCCCCCUCCACAGCUCCCACAGACCAGAGCCGGCCACCGUUGGAGGUGAGUCGCCCGCCCCUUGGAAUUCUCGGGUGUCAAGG` is reported as 1.06.
The log2 enrichment of `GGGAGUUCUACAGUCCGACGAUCUAACUUUAGAGGAGGAUCUGAUGGAUAUGGCAGUGGACGUGGAUUUGGGGAUGGCUAUAAUGGGUAUGGAGGAGGACCGGGAGGUGGCAAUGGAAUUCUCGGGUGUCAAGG` is reported as 0.248.
`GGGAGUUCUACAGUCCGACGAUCAGUCCUGUGCUACACAUCGUAUGUACCGAAUCGGGGUUUUUGGGGAGGGGUUUGGGGAAAGUAUUAUGUUACGCCGUUCGGAUCUGCACUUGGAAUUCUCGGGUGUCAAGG` gave a log2 enrichment of 0.328.
The log2 enrichment of `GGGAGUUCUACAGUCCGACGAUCGCAGGAAGUAAAAACAAAUGGAAAUGCUUCGGAUAGUGGCAGGGGUGGGGGUUGCGAAGGAAAGGGUGGGAUGGGAGUGGGUAAAGAGUUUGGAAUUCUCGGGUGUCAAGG` is reported as 0.693.
The log2 enrichment of `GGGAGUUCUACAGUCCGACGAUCCACAGACAACACGCACCCACACAGACACAGAGGGAAGGGGUUGGGAUGGGGACAGGGUGCACAGCAGGGCGGGGUAGGACCCCUGCCCCUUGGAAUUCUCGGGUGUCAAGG` is reported as 1.91.

Series 2
Target: RNA binding protein fox-1 homolog 2, RRM domain, GST-SBP tag (RBFOX2, Homo sapiens, UniProt O43251-10, residues 100-194)
Method: RNA Bind-n-Seq
Molecule type: RNA
Matrix: in vitro
Tested at: 365 nM
Notes: natural RNA segment, single round, ends assumed
Reference: no-protein control
Reading: higher = stronger binding
Construct (chain): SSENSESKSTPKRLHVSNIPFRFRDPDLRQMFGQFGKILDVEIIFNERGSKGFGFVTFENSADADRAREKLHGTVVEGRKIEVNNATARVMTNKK
`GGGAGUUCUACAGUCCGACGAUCAAUUGUGAGAACAAUUUUGAACAAUUUACCUGUCAAUAAAGCAGAAGGCAGCAGUUUUAAAGUUCUCGGGGUUUGUCUGAUAGUGAUGUCACCCAUUAUGCCUUCCUCUAUGGAAUUCUCGGGUGCCAA` — result for “RBNS enrichment (R)”: 0.443.
Under “RBNS enrichment (R)”, `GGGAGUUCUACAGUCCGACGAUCGAUAUUCAUCUCUCCAUUAGCAAUUGAAUCCAGGCAUAACCGGGCUCAGUUACACAGCUUGUCUGUGACUGGGAAGCCCAUUUUGUGUCAUUUCUGCACACCUGUCCGCUUGGAAUUCUCGGGUGCCAA` is recorded as 0.569.
`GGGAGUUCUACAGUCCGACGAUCGCCCUUCUCCCCAUCAAGCGCUCAGAGACGGUGUGACGAUGCCACUGGGGGUUAUGCAGCGUGGUCCAGCCGGAGCGGCCAGCAUGACCAGCUGUCCAGGGGCUGCCUCCUGGAAUUCUCGGGUGCCAA`: “RBNS enrichment (R)” 0.302.
Under “RBNS enrichment (R)”, `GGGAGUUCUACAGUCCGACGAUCUUAAGGCUUUGGAAAGGAGCAAAUAAUAAUGGGAGAAUUAACUCCAAAACUUUGACCUGAAUCAUGUGGAUUUGUCCCAAGAUUAUGCUAGAUGCACCAAGCAUGGCCCAUGGAAUUCUCGGGUGCCAA` is recorded as 2.16.
For `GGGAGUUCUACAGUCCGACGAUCAAUUAAUAAAAUCCCAAUGAAGCAGAGUUAUAGGGAUAGAUUUAUAGCUGGCAGAGUGGUAUCAAAGGAGAAAAACAGUGAAAAAGCCAAUUUCACUGGUUCGUUCAAUCUGGAAUUCUCGGGUGCCAA`, “RBNS enrichment (R)” read 0.677.
`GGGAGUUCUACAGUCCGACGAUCUCUGCCGUGGUCCUGCCGUGGUCCUGCCGUGGAGCCUGUCCCUACACAUGACCUUGGAGCCUCUUGGCCUUCAGAGCAGAGGCAAACCCACCACAGGGCAGCUGCGUUUUUGGAAUUCUCGGGUGCCAA` — result for “RBNS enrichment (R)”: 0.258.
Under “RBNS enrichment (R)”, `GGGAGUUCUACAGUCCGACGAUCAAACAGGCAGCUCAUAAGAGCCACAGGUCUUUAUGUUGAGUCGCGCACCGAAAAACUAAAAAUAAUGGGCGCUUUGGAGAAGAGUGUGGAGUCAUUCUCAUUGAAUUAUAUGGAAUUCUCGGGUGCCAA` is recorded as 0.532.
Under “RBNS enrichment (R)”, `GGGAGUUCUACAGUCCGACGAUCAUUCCGUGCCUCUGGGCCAAGAGGUCAGCUUUCUGCACGAGGAGAAAAACAGUAACUGCUGUUUGUUACAGCCUGAAAUCCAGGACGACCGCAUUUUCUCUUGGUUUCUAUGGAAUUCUCGGGUGCCAA` is recorded as 14.2.
For `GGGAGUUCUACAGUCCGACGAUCAUAAGAAGCAAAGUAAAGUUUUCUGGAUCUGUGAUAAACAAUUCUUUGUUAAUUAAAGGCAAUUUUAUUACCUGUCUAAUUAAGAAUAUAUUUCCAAGUUAGCAGUUAUGUGGAAUUCUCGGGUGCCAA`, “RBNS enrichment (R)” read 0.365.
For `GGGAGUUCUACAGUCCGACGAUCAAUAAAGGAAAGAGAAUAUUUGGUUACUCAGAUCCAUUUUUAACCUCUGGUGCUGUAUAAAGGGAAUAUUAAACUAGAUGUAAAUCAAAGUAUAUGUUUGGCUCAUUUGAUGGAAUUCUCGGGUGCCAA`, “RBNS enrichment (R)” read 0.834.
For `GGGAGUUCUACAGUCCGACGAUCGCUUGUUUGGGGGUUUGUUCCCAUCCAUGAGUAGAGUUGACAAGAAGAAUUUAAACGGGAGUCUGAAGACCUGCUGUUACUAGAAAGUUAAGAAAGGCGCUUUACAGAUAUGGAAUUCUCGGGUGCCAA`, “RBNS enrichment (R)” read 0.563.
For `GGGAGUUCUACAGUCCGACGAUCAGGGACAAGAAUCAAUGGAUAAGCGUGGGUGGAGGAAGAUCCAAACAGAAAAGUGCAAAGUUAUUCCCCAUCUUCCAAGGGUUGAAUUCUGGAGGAAGAAGACACAUUCCUGGAAUUCUCGGGUGCCAA`, “RBNS enrichment (R)” read 0.58.

Series 3
Target: Sal-like protein 4, full length isoform B (SALL4, Homo sapiens, UniProt Q9UJQ4-2, residues 1-616)
Method: universal PBM
Molecule type: double-stranded DNA, one strand shown
Matrix: in vitro
Tested at: not given
Notes: 8-mer, flanks averaged, mean of replicates
Reading: higher = stronger binding
`AAGTGCAC` has an E-score of 0.0147.
`AATGGAGG` gave an E-score of -0.0208.
With `ACAGCCTC` the E-score was -0.232.
For `CACCCAAC`, the E-score was -0.154.
`ATACCCGA` gave an E-score of -0.117.
`CGTCAGGC` has an E-score of -0.19.
With `GCCGGCCC` the E-score was -0.39.
`AATGCAAA` has an E-score of 0.287.
The E-score of `TCCGTAGA` is reported as 0.0001.
`CACCGCGA` has an E-score of -0.345.
With `AATTGTGT` the E-score was 0.138.
For `AGTCCTTC`, the E-score was -0.236.
`AACCTGAC` gave an E-score of -0.0633.
`ATCCCAGG` gave an E-score of -0.184.
The E-score of `ACTGTTTG` is reported as 0.106.
`AAGAACCT` gave an E-score of -0.0195.

Series 4
Target: Interferon regulatory factor 5, full length, phosphomimetic (IRF5, Homo sapiens, UniProt Q13568-2, residues 1-514, S451D/S453D/S456D/S462D)
Method: protein-binding microarray
Molecule type: double-stranded DNA, one strand shown
Matrix: in vitro
Tested at: 940 nM top
Notes: 60-bp whole probe
With: salmon DNA 0.4 mg/ml
Reference: random background probes
Reading: higher = stronger binding
All sequences stand within: GCCTAGCAC … GTCTTGATTCGCTTGACGCTGCTG
`TGAAGAATGCCTTTAATAAGGTGCTAG`: “fitted relative affinity” -0.392 z-score.
`GACGGTTTCGGGTTTCGGGAAGTGCTA` — result for “fitted relative affinity”: 9.75 z-score.
`GGCGGTTTCGGTTTCGGGACGTGCTAG` — result for “fitted relative affinity”: 14.6 z-score.
For `GACGGTTTCGGACTGGTGACGTGCTAG`, “fitted relative affinity” read 5.61 z-score.
Under “fitted relative affinity”, `GACGTACTGAGTATCGAGACGTGCTAG` is recorded as 1.57 z-score.
Under “fitted relative affinity”, `TTTGATATCAGTCTCGATTAGTGCTAG` is recorded as 3.57 z-score.
Under “fitted relative affinity”, `TTAGGTCTCCTACGGCTTTAGTGCTAG` is recorded as -0.345 z-score.
Under “fitted relative affinity”, `TTAGAACTGAGTTTCGATGAGTGCTAG` is recorded as 6.24 z-score.
For `GTTCTTATCCTTCCCCTCTAGTGCTAG`, “fitted relative affinity” read 1.62 z-score.
`TTAAATTTCAGTTTCGATTAGTGCTAG` — result for “fitted relative affinity”: 9.5 z-score.
For `GACGAACTGGGGCCTGGAGACGTGCTA`, “fitted relative affinity” read -0.239 z-score.
For `TTAGGACTGGGGACCGGGTTAGTGCTA`, “fitted relative affinity” read -0.176 z-score.
`GACGGTTCCCTTTTCCGGACGTGCTAG`: “fitted relative affinity” 1.04 z-score.
`CTCTTTTTGCTTTCTTTTATGTGCTAG`: “fitted relative affinity” 2.58 z-score.
Under “fitted relative affinity”, `GACGGTATCTGACTGGGGACGTGCTAG` is recorded as 0.119 z-score.
`TTAGATTTGAGTATCGATTAGTGCTAG`: “fitted relative affinity” 4.6 z-score.

A few entries again (series 3):
With `GCCGGCCC` the E-score was -0.39.
`AATGCAAA` has an E-score of 0.287.
The E-score of `TCCGTAGA` is reported as 0.0001.
`CACCGCGA` has an E-score of -0.345.
With `AATTGTGT` the E-score was 0.138.
For `AGTCCTTC`, the E-score was -0.236.
`AACCTGAC` gave an E-score of -0.0633.
`ATCCCAGG` gave an E-score of -0.184.
